Assay results collected from several papers.
Each line is one published result; not all experiments were run side by side. Several values in a cell are separate wells, animals, samples, runs or records. Numbers after ± are the reported error.
Spike glycoprotein: Spike glycoprotein (Severe acute respiratory syndrome coronavirus 2, UniProt P0DTC2)
rep main protease: Replicase polyprotein 1ab, main protease (rep, Severe acute respiratory syndrome coronavirus 2, UniProt P0DTD1)
Chain of UniProt P01556 (whole entry, looked up): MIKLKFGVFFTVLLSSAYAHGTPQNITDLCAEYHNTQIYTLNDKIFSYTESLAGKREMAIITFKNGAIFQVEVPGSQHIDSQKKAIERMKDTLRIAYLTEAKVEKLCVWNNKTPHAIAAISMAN
Chain of UniProt Q5XXP4 (whole entry, looked up): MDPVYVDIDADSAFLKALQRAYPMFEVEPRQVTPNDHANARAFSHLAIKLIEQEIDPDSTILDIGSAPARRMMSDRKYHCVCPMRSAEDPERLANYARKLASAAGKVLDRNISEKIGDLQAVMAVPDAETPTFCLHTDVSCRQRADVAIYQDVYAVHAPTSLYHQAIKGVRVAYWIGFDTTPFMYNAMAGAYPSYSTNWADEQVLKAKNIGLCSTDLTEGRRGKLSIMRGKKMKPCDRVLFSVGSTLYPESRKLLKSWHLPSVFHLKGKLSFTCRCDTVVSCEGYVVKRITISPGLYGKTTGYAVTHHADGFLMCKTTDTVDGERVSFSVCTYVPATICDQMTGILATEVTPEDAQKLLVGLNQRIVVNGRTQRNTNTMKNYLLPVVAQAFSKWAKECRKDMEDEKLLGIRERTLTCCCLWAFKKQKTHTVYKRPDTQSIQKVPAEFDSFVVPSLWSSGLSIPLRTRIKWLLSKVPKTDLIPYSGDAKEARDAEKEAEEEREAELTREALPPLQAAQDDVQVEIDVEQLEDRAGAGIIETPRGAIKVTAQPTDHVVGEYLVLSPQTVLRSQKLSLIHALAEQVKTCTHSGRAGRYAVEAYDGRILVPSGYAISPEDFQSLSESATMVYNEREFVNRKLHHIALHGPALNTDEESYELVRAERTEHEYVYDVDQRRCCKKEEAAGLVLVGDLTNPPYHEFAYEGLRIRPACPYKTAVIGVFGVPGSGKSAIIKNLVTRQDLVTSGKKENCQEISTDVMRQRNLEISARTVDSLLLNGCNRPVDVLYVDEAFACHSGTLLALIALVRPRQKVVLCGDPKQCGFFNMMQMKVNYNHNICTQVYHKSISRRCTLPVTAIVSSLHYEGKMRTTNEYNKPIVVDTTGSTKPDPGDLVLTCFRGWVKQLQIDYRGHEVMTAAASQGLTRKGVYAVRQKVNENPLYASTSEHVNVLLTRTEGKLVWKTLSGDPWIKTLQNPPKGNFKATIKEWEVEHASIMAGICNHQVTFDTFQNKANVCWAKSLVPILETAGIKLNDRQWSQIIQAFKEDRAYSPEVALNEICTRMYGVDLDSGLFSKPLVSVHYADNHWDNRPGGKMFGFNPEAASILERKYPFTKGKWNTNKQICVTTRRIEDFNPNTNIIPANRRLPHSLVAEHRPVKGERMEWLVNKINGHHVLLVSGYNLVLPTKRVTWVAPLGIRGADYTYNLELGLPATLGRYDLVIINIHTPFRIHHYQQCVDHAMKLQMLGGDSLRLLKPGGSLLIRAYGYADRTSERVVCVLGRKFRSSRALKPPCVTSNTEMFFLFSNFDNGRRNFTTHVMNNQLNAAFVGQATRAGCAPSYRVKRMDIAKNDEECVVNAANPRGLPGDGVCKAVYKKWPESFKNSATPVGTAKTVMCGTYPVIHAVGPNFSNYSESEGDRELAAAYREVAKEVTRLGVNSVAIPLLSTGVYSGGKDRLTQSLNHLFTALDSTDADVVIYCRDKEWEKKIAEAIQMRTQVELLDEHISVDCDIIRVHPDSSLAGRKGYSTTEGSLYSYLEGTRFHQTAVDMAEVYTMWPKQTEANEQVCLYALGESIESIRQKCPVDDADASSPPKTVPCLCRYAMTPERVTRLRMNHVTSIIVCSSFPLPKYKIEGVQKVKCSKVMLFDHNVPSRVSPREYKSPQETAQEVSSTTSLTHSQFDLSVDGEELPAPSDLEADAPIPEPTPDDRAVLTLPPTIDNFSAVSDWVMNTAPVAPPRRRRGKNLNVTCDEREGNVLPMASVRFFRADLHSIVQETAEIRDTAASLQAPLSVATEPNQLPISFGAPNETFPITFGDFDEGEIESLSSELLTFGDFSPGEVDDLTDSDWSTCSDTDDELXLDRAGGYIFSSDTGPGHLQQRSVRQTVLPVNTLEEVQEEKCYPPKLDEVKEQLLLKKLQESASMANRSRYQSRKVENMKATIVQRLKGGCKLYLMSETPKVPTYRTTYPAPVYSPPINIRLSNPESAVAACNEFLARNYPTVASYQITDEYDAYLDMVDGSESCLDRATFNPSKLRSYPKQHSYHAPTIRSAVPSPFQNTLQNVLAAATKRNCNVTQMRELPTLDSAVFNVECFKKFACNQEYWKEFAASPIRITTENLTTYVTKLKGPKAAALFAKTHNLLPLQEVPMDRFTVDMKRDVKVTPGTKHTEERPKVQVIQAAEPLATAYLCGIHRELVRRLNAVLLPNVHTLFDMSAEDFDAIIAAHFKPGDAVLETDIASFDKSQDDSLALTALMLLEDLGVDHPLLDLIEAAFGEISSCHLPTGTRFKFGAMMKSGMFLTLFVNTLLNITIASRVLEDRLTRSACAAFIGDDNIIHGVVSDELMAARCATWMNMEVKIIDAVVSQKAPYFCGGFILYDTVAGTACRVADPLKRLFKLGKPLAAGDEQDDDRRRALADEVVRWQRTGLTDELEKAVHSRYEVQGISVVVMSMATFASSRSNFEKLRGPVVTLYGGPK
Chain of UniProt P81425 (whole entry, looked up): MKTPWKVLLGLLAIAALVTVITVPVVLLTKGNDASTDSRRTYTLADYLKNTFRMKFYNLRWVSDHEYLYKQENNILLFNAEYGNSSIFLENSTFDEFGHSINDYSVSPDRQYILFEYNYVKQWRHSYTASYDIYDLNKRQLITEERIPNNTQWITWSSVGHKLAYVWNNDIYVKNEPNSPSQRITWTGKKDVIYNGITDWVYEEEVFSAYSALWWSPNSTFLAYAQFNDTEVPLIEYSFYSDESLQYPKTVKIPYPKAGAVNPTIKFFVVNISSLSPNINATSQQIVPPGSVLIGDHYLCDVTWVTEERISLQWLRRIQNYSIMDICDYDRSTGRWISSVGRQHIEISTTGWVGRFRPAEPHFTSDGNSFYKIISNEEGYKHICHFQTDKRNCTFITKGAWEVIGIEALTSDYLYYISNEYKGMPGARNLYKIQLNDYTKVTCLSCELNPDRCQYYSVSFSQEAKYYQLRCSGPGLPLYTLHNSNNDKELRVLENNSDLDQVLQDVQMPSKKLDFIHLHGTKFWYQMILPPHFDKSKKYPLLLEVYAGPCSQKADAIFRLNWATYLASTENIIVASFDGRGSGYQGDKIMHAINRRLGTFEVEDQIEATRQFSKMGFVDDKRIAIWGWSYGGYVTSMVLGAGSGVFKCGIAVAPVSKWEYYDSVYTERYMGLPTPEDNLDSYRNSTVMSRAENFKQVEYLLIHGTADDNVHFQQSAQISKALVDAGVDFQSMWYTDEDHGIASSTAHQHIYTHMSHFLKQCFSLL
Chain of UniProt P78348 (whole entry, looked up): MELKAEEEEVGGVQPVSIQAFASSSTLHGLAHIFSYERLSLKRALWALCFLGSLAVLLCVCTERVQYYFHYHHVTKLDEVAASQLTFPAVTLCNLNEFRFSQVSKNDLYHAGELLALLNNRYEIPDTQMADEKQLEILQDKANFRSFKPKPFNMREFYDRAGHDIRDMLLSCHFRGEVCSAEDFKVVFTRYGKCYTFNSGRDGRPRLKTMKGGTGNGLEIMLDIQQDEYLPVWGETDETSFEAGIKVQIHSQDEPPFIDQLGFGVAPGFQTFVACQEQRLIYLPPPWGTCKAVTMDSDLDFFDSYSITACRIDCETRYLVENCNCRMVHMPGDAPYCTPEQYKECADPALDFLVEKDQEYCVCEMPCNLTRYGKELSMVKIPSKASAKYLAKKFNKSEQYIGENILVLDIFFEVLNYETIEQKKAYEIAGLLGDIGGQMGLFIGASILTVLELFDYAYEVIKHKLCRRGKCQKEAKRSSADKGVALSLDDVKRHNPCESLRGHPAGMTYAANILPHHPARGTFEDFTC

Substance	target or system	assay	system	conditions	scale	measurement	value
Nc1ncnc2c([C@@H]3N[C@H](CO)[C@@H](O)[C@H]3O)c[nH]c12	Sudan ebolavirus	viral replication	HeLa, Boniface	50 µM		inhibition	88.9%
COc1cccc(-c2nc(C(=O)NCC=CS(C)(=O)=O)c(C)[nH]2)c1	Polyprotein P1234, nsP2 protease domain (Chikungunya virus, UniProt Q5XXP4)	time-dependent inhibitor				kinact	0.0023 ± 0.0003 s⁻¹
C[C@H]1CC[C@@]2(OC1)O[C@H]1C[C@H]3[C@@H]4CC[C@@H]5C[C@@H](O[C@@H]6O[C@H](CO)[C@H](O)[C@H](O)[C@H]6O[C@@H]6O[C@H](CO)[C@@H](O)[C@H](O)[C@H]6O)CC[C@]5(C)[C@H]4CC[C@]3(C)[C@H]1[C@@H]2C	Spike glycoprotein	binding				koff	0.238 s⁻¹
CC[C@H](C)[C@H](NC(=O)[C@H](CC(C)C)NC(=O)[C@H](Cc1c[nH]c2ccccc12)NC(=O)CNC(=O)[C@@H](NC(=O)[C@H](Cc1ccccc1)NC(=O)[C@H](CCC(=O)O)NC(=O)[C@H](CCCCN)NC(=O)[C@H](C)NC(=O)[C@H](C)NC(=O)[C@H](CCCCN)NC(=O)[C@H](CCC(=O)O)NC(=O)[C@H](CCC(=O)O)NC(=O)[C@H](CC(C)C)NC(=O)[C@H](Cc1ccc(O)cc1)NC(=O)[C@H](CC(N)=O)NC(=O)[C@@H](NC(=O)[C@H](CCSC)NC(=O)[C@H](CC(=O)O)NC(=O)[C@H](CC(N)=O)NC(=O)[C@@H](NC(=O)[C@H](Cc1ccccc1)NC(=O)[C@@H](NC(=O)CNC(=O)[C@H](CCC(=O)O)NC(=O)[C@H](CO)NC(=O)[C@@H](N)Cc1c[nH]cn1)[C@@H](C)O)[C@@H](C)O)[C@@H](C)O)C(C)C)C(=O)N[C@@H](CCCCN)C(=O)NCC(=O)NCC(=O)N1CCC[C@H]1C(=O)N[C@@H](CO)C(=O)N[C@@H](CO)C(=O)NCC(=O)N[C@@H](C)C(=O)N1CCC[C@H]1C(=O)N1CCC[C@H]1C(=O)N1CCC[C@H]1C(=O)N[C@@H](CO)C(=O)O	Dipeptidyl peptidase 4 (Bos taurus, UniProt P81425)	GLP1R CRE-luciferase	100% fetal bovine serum	100 nM, 96 h, 37 °C	reference: initial activity	remaining activity	> 50%
O=C[C@H](O)[C@@H](O)[C@@H](O)[C@H](O)CO	ctxB (Vibrio cholerae, UniProt P01556)	binding				log IC50	-0.953
CC[C@H](C)[C@H](NC(=O)[C@@H]1CCCN1C(=O)[C@H](C)NC(=O)[C@@H]1CSSC[C@@H]2NC(=O)[C@H](CC(=O)O)NC(=O)[C@H](CCCNC(=N)N)NC(=O)[C@H](CCC(=O)O)NC(=O)[C@H](CCCNC(=N)N)NC(=O)CNC(=O)[C@H](CC(=O)O)NC(=O)[C@@H]3CSSC[C@H](NC(=O)[C@H](CCC(=O)O)NC(=O)[C@H](CC(C)C)NC(=O)CNC(=O)[C@H](C)NC(=O)[C@H](CSSC[C@H](NC(=O)[C@H](Cc4ccccc4)NC(=O)[C@@H](N)CO)C(=O)N[C@@H](CC(C)C)C(=O)N[C@@H](C(C)C)C(=O)N[C@@H](CCCCN)C(=O)N[C@@H](Cc4c[nH]c5ccccc45)C(=O)N[C@@H](CCCCN)C(=O)N[C@@H](CCC(N)=O)C(=O)N3)NC2=O)C(=O)N[C@@H](Cc2c[nH]c3ccccc23)C(=O)N[C@@H](CCCCN)C(=O)N[C@@H](CCCNC(=N)N)C(=O)N[C@@H](CO)C(=O)N[C@@H](CCCNC(=N)N)C(=O)N[C@@H](CC(N)=O)C(=O)N[C@@H](CCCCN)C(=O)N[C@@H](CO)C(=O)N[C@@H](CO)C(=O)N[C@@H](C(C)C)C(=O)N1)C(=O)N[C@H](C(=O)O)[C@@H](C)O	Acid-sensing ion channel 1 (ASIC1, Homo sapiens, UniProt P78348)	binding, SPR		pH 7.5		kon	2.29e+07 M⁻¹ s⁻¹
O=C1/C(=C/c2ccc(Cl)c(Cl)c2)CNC/C1=C\c1ccc(Cl)c(Cl)c1	rep main protease	viral replication, mKate2 reporter	SARS-CoV-2	20 µM		inhibition	-0.208%
O=C(CCn1cc[nH]c(=O)c1=O)N[C@@H]1CCCC12CN(C(=O)c1cccc3c1C(=O)NC3)C2	rep main protease	enzyme activity, inhibitor		5 µM, mean of runs		inhibition	13.4%
Cl.Clc1ccc(Cn2c(CN3CCCC3)nc3ccccc32)cc1	rep main protease	reporter gene (mKate2), inhibitor		20 µM		inhibition	-0.214%
CNC(=O)[C@@H](NC(=O)[C@H](CC(C)C)[C@H](O)C(=O)NO)C(C)(C)C	Daboia russelii venom proteases (SVMP)	protease activity, inhibitor	GA population	1 µM, with: azocasein substrate	reference: venom alone	remaining activity	83.7% and 82.4% and 80.5%
COc1ccc(Cl)cc1NC(=O)CSc1nc2ccccc2nc1N1CCCCC1	SARS-CoV-2	cytopathic effect	USA_WA1/2020	round 1, 5-point		maximum response	92%
Cn1cnc(Cn2c(=O)[nH]/c(=N\c3cc4cn(C)nc4cc3Cl)n(Cc3cc(F)c(F)cc3F)c2=O)n1			human, mild renal impairment	oral, 375 mg, treatment-related dry mouth, Severe severity		patients with adverse event	0%
CC[C@H](C)[C@H](NC(=O)[C@H](CC(C)C)NC(=O)[C@H](Cc1c[nH]c2ccccc12)NC(=O)[C@H](CCC(N)=O)NC(=O)[C@@H](NC(=O)[C@H](Cc1ccccc1)NC(=O)[C@H](C)NC(=O)[C@H](CCCCNC(=O)COCCOCCNC(=O)COCCOCCNC(=O)CC[C@H](NC(=O)CCCCCCCCCCCCCCCCCCC(=O)O)C(=O)O)NC(=O)[C@H](CCC(N)=O)NC(=O)[C@H](C)NC(=O)[C@@H](NC(=O)[C@H](CCCCN)NC(=O)[C@H](CC(=O)O)NC(=O)[C@H](CC(C)C)NC(=O)C(C)(C)NC(=O)[C@@H](NC(=O)[C@H](CO)NC(=O)[C@H](Cc1ccc(O)cc1)NC(=O)[C@H](CC(=O)O)NC(=O)[C@H](CO)NC(=O)[C@@H](NC(=O)[C@H](Cc1ccccc1)NC(=O)[C@@H](NC(=O)CNC(=O)[C@H](CCC(=O)O)NC(=O)C(C)(C)NC(=O)[C@@H](N)Cc1ccc(O)cc1)[C@@H](C)O)[C@@H](C)O)[C@@H](C)CC)[C@@H](C)CC)C(C)C)C(=O)N[C@@H](C)C(=O)NCC(=O)NCC(=O)N1CCC[C@H]1C(=O)N[C@@H](CO)C(=O)N[C@@H](CO)C(=O)NCC(=O)N[C@@H](C)C(=O)N1CCC[C@H]1C(=O)N1CCC[C@H]1C(=O)N1CCC[C@H]1C(=O)N[C@@H](CO)C(N)=O		measured: anti-drug antibodies	patients with type 2 diabetes	5/5/10/15 mg escalating, titer increase ≥4-fold		subjects with treatment-boosted ADA	0%
O=C(CC1CC(=O)NC(=O)C1)NC[C@@H]1CC2(CCC2)CN1C(=O)[C@@H]1CCCC12CCOCC2	rep main protease	enzyme activity, inhibitor		5 µM, run 1		inhibition	17.5%
CC(C)=CCC[C@](C)(O[C@@H]1O[C@H](CO)[C@@H](O)[C@H](O)[C@H]1O)[C@H]1CC[C@]2(C)[C@@H]1[C@H](O)C[C@@H]1[C@@]3(C)CC[C@H](O[C@@H]4O[C@H](CO)[C@@H](O)[C@H](O)[C@H]4O)C(C)(C)[C@@H]3CC[C@]12C	Spike glycoprotein	binding, BLI				kon	18600 M⁻¹ s⁻¹
NC(=O)NC[C@H](N)C(=O)O	rep main protease	reporter gene (Gaussia luciferase), inhibitor		20 µM		inhibition	2.13%
C#CC1(C(=O)NC[C@H](NC(=O)c2cncc3[nH]ccc23)c2ccc3ccccc3c2)CC1	rep main protease	enzyme activity, inhibitor		5 µM, run 1		inhibition	15.8%
Z-FA-FMK	rep main protease	enzyme activity, Gaussia luciferase reporter	SARS-CoV-2	20 µM		inhibition	23.4%
O=C(NCC[C@@H]1c2ccccc2CCN1C(=O)c1ncnc2[nH]ccc12)c1ccc[n+]([O-])c1	rep main protease	enzyme activity, inhibitor		5 µM, mean of runs		inhibition	13.4%
CC(=O)NO	rep main protease	reporter gene (mKate2), inhibitor		20 µM		inhibition	-0.587%
Cc1nc(C(=O)N2CC[C@@H]([C@@H]3CCCN3C(=O)c3cc(O)ccc3Cl)C2)cc(=O)[nH]1	rep main protease	enzyme activity, inhibitor		5 µM, run 1		inhibition	8.5%
O=C(NCc1ccccc1Cl)C1CCCN(Cc2cccc(-c3ccc(F)cc3F)c2)C1 (stereo not shown)	SARS-CoV-2	cytopathic effect, cell-based CPE	USA_WA1/2020	round 1, 5-point dilution		AC50	12.6 µM

A few entries again:
Substance	target or system	assay	system	conditions	scale	measurement	value
NC(=O)NC[C@H](N)C(=O)O	rep main protease	reporter gene (Gaussia luciferase), inhibitor		20 µM		inhibition	2.13%
O=C(CCn1cc[nH]c(=O)c1=O)N[C@@H]1CCCC12CN(C(=O)c1cccc3c1C(=O)NC3)C2	rep main protease	enzyme activity, inhibitor		5 µM, mean of runs		inhibition	13.4%
CC[C@H](C)[C@H](NC(=O)[C@H](CC(C)C)NC(=O)[C@H](Cc1c[nH]c2ccccc12)NC(=O)[C@H](CCC(N)=O)NC(=O)[C@@H](NC(=O)[C@H](Cc1ccccc1)NC(=O)[C@H](C)NC(=O)[C@H](CCCCNC(=O)COCCOCCNC(=O)COCCOCCNC(=O)CC[C@H](NC(=O)CCCCCCCCCCCCCCCCCCC(=O)O)C(=O)O)NC(=O)[C@H](CCC(N)=O)NC(=O)[C@H](C)NC(=O)[C@@H](NC(=O)[C@H](CCCCN)NC(=O)[C@H](CC(=O)O)NC(=O)[C@H](CC(C)C)NC(=O)C(C)(C)NC(=O)[C@@H](NC(=O)[C@H](CO)NC(=O)[C@H](Cc1ccc(O)cc1)NC(=O)[C@H](CC(=O)O)NC(=O)[C@H](CO)NC(=O)[C@@H](NC(=O)[C@H](Cc1ccccc1)NC(=O)[C@@H](NC(=O)CNC(=O)[C@H](CCC(=O)O)NC(=O)C(C)(C)NC(=O)[C@@H](N)Cc1ccc(O)cc1)[C@@H](C)O)[C@@H](C)O)[C@@H](C)CC)[C@@H](C)CC)C(C)C)C(=O)N[C@@H](C)C(=O)NCC(=O)NCC(=O)N1CCC[C@H]1C(=O)N[C@@H](CO)C(=O)N[C@@H](CO)C(=O)NCC(=O)N[C@@H](C)C(=O)N1CCC[C@H]1C(=O)N1CCC[C@H]1C(=O)N1CCC[C@H]1C(=O)N[C@@H](CO)C(N)=O		measured: anti-drug antibodies	patients with type 2 diabetes	5/5/10/15 mg escalating, titer increase ≥4-fold		subjects with treatment-boosted ADA	0%
